{"data": "Published values of several laboratories", "note": "Every numbered part comes from another study and shows a few of its results, in no order. Substitutions count along the parent as printed."}
{"data": "Block 1", "target": "RNA binding protein fox-1 homolog 2, RRM domain, GST-SBP tag (RBFOX2, Homo sapiens, UniProt O43251-10, residues 100-194)", "technique": "RNA Bind-n-Seq", "form": "RNA", "sample": "in vitro", "tested at": "365 nM", "notes": "natural RNA segment, single round, ends assumed", "relative to": "no-protein control", "direction": "higher = stronger binding", "constant ends, left off below": "GGGAGUUCUACAGUCCGACGAUC … UGGAAUUCUCGGGUGCCAA"}
{"Strand": "CACAAUAGGAAACACCACUUCCACAAGUCUCAAGCCUCAGUGCUAAAGUACUACUGAAAAGGAACUAGGAAGUUUGGCCAAUUAAAAAAAAAAAGUAAAAUAAGUUAUAG", "RBNS enrichment (R)": 0.543}
{"Strand": "AAAGAUUUUUGUUAAGCUCAGGAUUUUAAAUUACACAGUUCACAAACAGUAAAGGCCAUGUGAAGAGAAUUAUUACAUCUUUAUUAACCUCAGCAUUUACUUUGUUUCUU", "RBNS enrichment (R)": 0.561}
{"Strand": "UGUGUAAAUAUUUUCCUCUCAGGGCAGGGGAAAGAGGACAGAGAAAGGAGCUGGUAGAAGCAGAGAGUGUAUUUCCCAUCUUGAAUGGGCCGGAGGUCUCGAAGCCUCAG", "RBNS enrichment (R)": 0.551}
{"Strand": "CACCGACUCCACCUCAGAGCAUGGUGCCUCCGUUUUCCCUUCCUAGUGACCCCAGGUUUAGCAUCGUCCUAUACUGUUCCCUCCACUCCUCCAUGACCCUCUGAGUGAUG", "RBNS enrichment (R)": 0.596}
{"Strand": "UUCCCCAGGCCCUGCCUGUGGUUCCUGCCUGGGCCUUGGCUGCUGCUGUGUGAGAGCUGCAUGUGAGCCUGUGACCGUGAGCUGGGGUGAGCUGGGCCGCACCUACCCUG", "RBNS enrichment (R)": 0.997}
{"Strand": "ACACCUGCCCCUCCUCACCUAACGGACUGCAGGGCUGAGCAUGUGUCUGAGGUCACACUCUCUGCCCACUCACCUCCUUGGCUGACAUCGGUUGUGUUUGGUGCUGACAC", "RBNS enrichment (R)": 0.661}
{"Strand": "UGUUCUCCAAACACAAUGGAAUUUCUUGUUCAAGAGCAGCUUCCAGAGUUGAGCCAGCCCUCGCUGCCUUGGGUGCUUGCUUACCACCAGUCAAGGUUGCUCUGAACUUU", "RBNS enrichment (R)": 0.43}
{"Strand": "UUGGAUAAAUAGGAUUCAGAAAGCUAACAGUUUUCAUUCUGAAGGAGCAGAAACAUAAUCAAUCCCUCCCUGAGAUAAAAUGUGGGCAUGCACAUUGCUUUGGAGUCAGU", "RBNS enrichment (R)": 1.15}
{"Strand": "CUCUUUGGUCCUACCCGCUUCCCAUCACCGGAGGAGCUUCCCCGGCCGGGAGACCAGUGUUAGAGGAUCCAAGCGACCUAAACAGCUGCUUUAUGAAAUAUCCUUACUUU", "RBNS enrichment (R)": 0.461}
{"Strand": "UUGGGCCUCUCUUGACUAUAGCAGGCUGCUGCUGCGGCUUGUCUGGACACCUGGGGACUUCCCCGCCUCCCUUCCCUUCUGUGUCCCCAGGUCCCCCGCAGGCCCCUGAG", "RBNS enrichment (R)": 0.676}
{"Strand": "UAUGAUCAGGACCAUAUCCUGCCCAUCUUUGGGCCCUUGGCACUAAAACAAGUGAAUAGAUCCAAGUGAAUAAAGUAAUUUCUCCAUUGACUUUUUUUUUUAACUGCUAG", "RBNS enrichment (R)": 0.366}
{"Strand": "UGGCUUGGUUUCCAUGAUUCUUACUUUAUUAGCCUAGUUUAUCACCAAUAAUACUUGACGGAAGGCUCAGUAAUUAGUUAUGAAUAUGGAUAUCCUCAAUUCUUAAGACA", "RBNS enrichment (R)": 0.481}
{"data": "Block 2", "target": "CCNF, cyclin fold, Cln2 fusion (human)", "technique": "yeast growth competition, sequencing", "sample": "yeast", "notes": "strong parent motif", "relative to": "not given", "direction": "higher = stronger binding", "starting sequence": "WEE1 docking peptide (human); CTLRQKLIFSPCS; partner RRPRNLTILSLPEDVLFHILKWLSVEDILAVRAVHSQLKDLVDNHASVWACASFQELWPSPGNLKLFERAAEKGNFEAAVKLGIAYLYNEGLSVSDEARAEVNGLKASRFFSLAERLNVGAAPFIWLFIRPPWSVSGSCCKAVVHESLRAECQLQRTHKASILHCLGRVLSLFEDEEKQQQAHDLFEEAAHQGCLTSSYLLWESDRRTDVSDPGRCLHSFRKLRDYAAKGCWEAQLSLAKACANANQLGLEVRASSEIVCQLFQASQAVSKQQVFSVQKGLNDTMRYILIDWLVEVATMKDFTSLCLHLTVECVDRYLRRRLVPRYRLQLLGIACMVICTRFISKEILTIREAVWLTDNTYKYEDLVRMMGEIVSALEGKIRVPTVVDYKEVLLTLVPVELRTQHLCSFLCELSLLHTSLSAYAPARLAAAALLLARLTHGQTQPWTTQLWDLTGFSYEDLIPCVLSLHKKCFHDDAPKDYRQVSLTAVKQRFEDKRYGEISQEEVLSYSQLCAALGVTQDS"}
{"Variant": "CTLRAKLIFSPCS [Q5A]", "normalised enrichment score": 2.36}
{"Variant": "ATLRQKLIFSPCS [C1A]", "normalised enrichment score": 3.43}
{"Variant": "CTLRQKLIFSACS [P11A]", "normalised enrichment score": 1.13}
{"Variant": "CTLRQKLIFSPAS [C12A]", "normalised enrichment score": 3.67}
{"Variant": "CTLRQKLIASPCS [F9A]", "normalised enrichment score": 0.0636}
{"Variant": "CTLRQKLIFSPCA [S13A]", "normalised enrichment score": 3.66}
{"data": "Block 3", "target": "Phosphate system positive regulatory protein PHO4, full length, GST-tagged (PHO4, Saccharomyces cerevisiae, UniProt P07270, residues 1-312)", "technique": "competition protein-binding microarray", "form": "double-stranded DNA, one strand shown", "sample": "in vitro", "tested at": "2 µM", "notes": "whole 60-bp probe, lowest competitor level", "together with": "Cbf1 competitor, 0.05 µM", "direction": "higher = stronger binding", "constant ends, left off below": "… GTCTTGATTCGCTTGACGCTGCTG", "Residues (chain)": "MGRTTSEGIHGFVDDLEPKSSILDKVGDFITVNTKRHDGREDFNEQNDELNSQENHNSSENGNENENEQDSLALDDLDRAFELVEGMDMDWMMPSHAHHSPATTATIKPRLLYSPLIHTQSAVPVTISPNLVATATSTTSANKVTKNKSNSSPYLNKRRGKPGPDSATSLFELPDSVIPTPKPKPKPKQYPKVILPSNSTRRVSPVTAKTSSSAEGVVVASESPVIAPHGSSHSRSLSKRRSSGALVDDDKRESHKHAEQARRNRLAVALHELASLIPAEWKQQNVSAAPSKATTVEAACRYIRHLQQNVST"}
{"Strand": "CATACCCAACCTTGGCCGGTGGGTGAAGATATTTGT", "fluorescence intensity [a.u.]": 3800}
{"Strand": "ATTTGAGAATATACTGTCGTGACGAAGTCAATGACA", "fluorescence intensity [a.u.]": 4400}
{"Strand": "AAAGCGGTAATTTGTCACCAGACTTCACATATCTAT", "fluorescence intensity [a.u.]": 3610}
{"Strand": "CATACCCAACCTTGTCACATTACTTAAGATATTTGT", "fluorescence intensity [a.u.]": 4520}
{"Strand": "AAAGCGGTAATTTGCGCCGTGGGTGCAGATATCTAT", "fluorescence intensity [a.u.]": 5330}
{"Strand": "CTAACGAAGGTTTGGACAGTGGGTGACAAGCCAAGT", "fluorescence intensity [a.u.]": 3910}
{"Strand": "TTTCATAGCGGGCCAAGCGTGGGTAAAGTGCTGGAC", "fluorescence intensity [a.u.]": 5600}
{"Strand": "TGCGCAACAACTTGTCACAAGACTTTATGTCTAGAA", "fluorescence intensity [a.u.]": 3990}
{"Strand": "CTAACGAAGGTTTGCCACGTGTTTTACAAGCCAAGT", "fluorescence intensity [a.u.]": 16400}
{"Strand": "TTTTTCTTCTTAAAGCACGTTAACCAGTAATCAAGG", "fluorescence intensity [a.u.]": 7970}
{"Strand": "CTTCTGTAAATTTGCCCAGTGGGTGGACGCGCCCCG", "fluorescence intensity [a.u.]": 3770}
{"Strand": "CTTCTGTAAATTTGTGATGTGGGTGGACGCGCCCCG", "fluorescence intensity [a.u.]": 4890}
{"Strand": "CAAACTCGAATCCATCACGTTTCACAATTGTTCCAA", "fluorescence intensity [a.u.]": 11700}
{"Strand": "CTTTCCCGATCTTGTCACGATACTTTAGCACATTTG", "fluorescence intensity [a.u.]": 6730}
{"Strand": "GGTAACACCTTCGAAACCGTGACTCGTCTTGACAGC", "fluorescence intensity [a.u.]": 4770}
{"Strand": "CGGGGTTAAGTTTTTCACGTGTTCTGCTTGCAGCAG", "fluorescence intensity [a.u.]": 12000}
{"Strand": "TGTATGAGAGTGGTCGATTTCAATCGGCAACATTCT", "fluorescence intensity [a.u.]": 3500}
{"Strand": "AAATTACTAAGTTGCTACGTGGGTGACGCCGTATGA", "fluorescence intensity [a.u.]": 7280}
{"data": "Single results of other studies"}
{"Molecule": "PhoQ, residues 284 288 289 292 302 303 ASTSDA", "target": "PhoP, residues 12 14 15 18 19 LQHIR (Escherichia coli, UniProt P23836)", "assay": "Sort-seq, refers to: YFP reporter", "system": "E. coli", "setting": "PhoQ-PhoP variant library, together with: 10 µM Mg2+", "scale": "relative to: high Mg2+ state, higher = stronger signaling", "measurement": "fold induction", "value": 5.69}
{"note": "Some of these lines once more (block 3):"}
{"Strand": "ATTTGAGAATATACTGTCGTGACGAAGTCAATGACA", "fluorescence intensity [a.u.]": 4400}
{"Strand": "TGCGCAACAACTTGTCACAAGACTTTATGTCTAGAA", "fluorescence intensity [a.u.]": 3990}
{"Strand": "TTTCATAGCGGGCCAAGCGTGGGTAAAGTGCTGGAC", "fluorescence intensity [a.u.]": 5600}
{"Strand": "CATACCCAACCTTGGCCGGTGGGTGAAGATATTTGT", "fluorescence intensity [a.u.]": 3800}
{"Strand": "CTTCTGTAAATTTGCCCAGTGGGTGGACGCGCCCCG", "fluorescence intensity [a.u.]": 3770}
{"Strand": "TGTATGAGAGTGGTCGATTTCAATCGGCAACATTCT", "fluorescence intensity [a.u.]": 3500}
